Results gathered from unrelated publications.
Each numbered part is a random draw from the data of one study; scales do not carry over between parts. “And” joins repeats or separate records; there may be more than shown.
Chain of UniProt O75914 (whole entry, looked up): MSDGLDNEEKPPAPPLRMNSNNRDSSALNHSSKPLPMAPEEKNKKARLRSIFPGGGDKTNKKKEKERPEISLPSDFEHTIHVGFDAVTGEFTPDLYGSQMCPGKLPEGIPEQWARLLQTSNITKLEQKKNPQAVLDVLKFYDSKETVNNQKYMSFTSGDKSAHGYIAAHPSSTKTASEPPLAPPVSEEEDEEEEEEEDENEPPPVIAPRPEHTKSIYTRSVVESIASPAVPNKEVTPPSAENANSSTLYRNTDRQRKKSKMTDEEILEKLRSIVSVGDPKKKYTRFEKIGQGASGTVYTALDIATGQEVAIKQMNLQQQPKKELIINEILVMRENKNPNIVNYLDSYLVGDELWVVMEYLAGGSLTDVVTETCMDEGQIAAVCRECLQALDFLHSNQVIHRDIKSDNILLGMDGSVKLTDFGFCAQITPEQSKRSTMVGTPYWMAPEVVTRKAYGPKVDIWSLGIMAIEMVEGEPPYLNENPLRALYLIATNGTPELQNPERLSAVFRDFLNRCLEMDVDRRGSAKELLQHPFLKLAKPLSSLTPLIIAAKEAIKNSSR
Chain of UniProt P07550 (whole entry, looked up): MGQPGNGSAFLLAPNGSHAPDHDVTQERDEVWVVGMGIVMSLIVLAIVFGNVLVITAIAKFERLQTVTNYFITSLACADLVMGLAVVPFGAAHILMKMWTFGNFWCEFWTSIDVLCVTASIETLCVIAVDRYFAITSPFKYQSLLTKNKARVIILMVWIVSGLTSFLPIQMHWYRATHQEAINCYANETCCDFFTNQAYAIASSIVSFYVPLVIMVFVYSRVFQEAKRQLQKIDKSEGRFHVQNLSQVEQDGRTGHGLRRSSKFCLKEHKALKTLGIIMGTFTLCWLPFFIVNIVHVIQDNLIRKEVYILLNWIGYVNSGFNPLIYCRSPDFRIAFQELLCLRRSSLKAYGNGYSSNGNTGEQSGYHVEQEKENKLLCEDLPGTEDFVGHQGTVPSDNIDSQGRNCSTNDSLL
Chain of UniProt P14416 (whole entry, looked up): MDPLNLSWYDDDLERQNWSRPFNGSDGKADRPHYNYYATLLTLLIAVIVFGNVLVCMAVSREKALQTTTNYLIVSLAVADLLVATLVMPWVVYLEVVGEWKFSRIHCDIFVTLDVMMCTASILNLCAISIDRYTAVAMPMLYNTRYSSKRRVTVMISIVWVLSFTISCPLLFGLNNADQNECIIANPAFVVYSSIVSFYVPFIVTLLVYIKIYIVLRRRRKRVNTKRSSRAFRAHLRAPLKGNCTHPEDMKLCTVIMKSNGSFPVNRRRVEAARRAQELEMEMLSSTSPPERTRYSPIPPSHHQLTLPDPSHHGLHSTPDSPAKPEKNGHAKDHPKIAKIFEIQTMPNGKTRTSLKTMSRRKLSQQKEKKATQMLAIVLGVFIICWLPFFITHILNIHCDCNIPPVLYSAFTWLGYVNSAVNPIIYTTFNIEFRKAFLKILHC
Chain of UniProt Q9Y5N1 (whole entry, looked up): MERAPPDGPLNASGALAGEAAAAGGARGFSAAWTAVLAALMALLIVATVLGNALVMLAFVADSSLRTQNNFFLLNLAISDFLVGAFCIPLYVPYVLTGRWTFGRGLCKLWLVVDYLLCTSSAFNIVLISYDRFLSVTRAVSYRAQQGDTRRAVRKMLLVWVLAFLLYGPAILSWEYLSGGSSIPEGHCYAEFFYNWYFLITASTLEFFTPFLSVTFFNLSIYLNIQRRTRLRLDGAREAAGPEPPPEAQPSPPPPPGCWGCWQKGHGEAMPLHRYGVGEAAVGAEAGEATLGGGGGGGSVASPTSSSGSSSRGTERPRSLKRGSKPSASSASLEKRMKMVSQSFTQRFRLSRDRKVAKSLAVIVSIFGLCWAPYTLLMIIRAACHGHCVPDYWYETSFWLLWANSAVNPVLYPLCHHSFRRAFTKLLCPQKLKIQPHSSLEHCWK

Series 1
Target: Myosin light chain kinase 2, skeletal/cardiac muscle (MYLK2, Homo sapiens, UniProt Q9H1R3)
Chain of UniProt Q9H1R3 (whole entry, looked up): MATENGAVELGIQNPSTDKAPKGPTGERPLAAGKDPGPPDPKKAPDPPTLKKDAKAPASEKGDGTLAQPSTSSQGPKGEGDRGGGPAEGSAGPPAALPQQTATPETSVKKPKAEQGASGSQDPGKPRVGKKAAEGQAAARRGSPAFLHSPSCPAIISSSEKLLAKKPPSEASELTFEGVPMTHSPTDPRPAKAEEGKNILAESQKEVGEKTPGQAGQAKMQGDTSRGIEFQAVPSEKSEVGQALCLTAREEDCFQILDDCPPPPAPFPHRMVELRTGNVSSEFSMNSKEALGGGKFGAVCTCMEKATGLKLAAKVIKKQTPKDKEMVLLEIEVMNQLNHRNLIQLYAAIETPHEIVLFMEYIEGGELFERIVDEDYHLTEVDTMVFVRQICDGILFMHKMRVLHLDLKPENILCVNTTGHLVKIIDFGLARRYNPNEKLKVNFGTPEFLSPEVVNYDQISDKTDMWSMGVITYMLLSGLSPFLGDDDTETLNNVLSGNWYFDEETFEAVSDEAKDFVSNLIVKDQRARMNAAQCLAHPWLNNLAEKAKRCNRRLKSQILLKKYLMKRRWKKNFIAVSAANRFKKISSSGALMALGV
Effect on: enzyme activity
Action: inhibitor
Tested at: 0.5 µM
Baseline: control
Endpoint: remaining activity
C[C@@H](N)[C@H]1CC[C@H](C(=O)Nc2ccncc2)CC1: 97.1%
CNc1cc2c(Nc3cccc(Br)c3)ncnc2cn1: 97.3%
O=c1c(-c2ccc(F)cc2)c(-c2ccncc2)[nH]n1-c1ccc(Cl)cc1: 101%
c1cc(-c2cnn3cc(-c4ccc(OCCN5CCCCC5)cc4)cnc23)ccn1: 9.29%
O=Nc1c(-c2c(O)[nH]c3ccccc23)[nH]c2ccccc12: 41.1%
N#C/C(=C(/N)SC1C=CC=CC1)c1cccc(C(O)c2ccncc2)c1 (centres unmarked): 101%
CCN(CC)CCCCN1c2ccccc2Oc2ccc(Cl)cc21: 104%
CC(C)N(CCC(=O)c1ccc2ccccc2c1)Cc1ccccc1: 100%
CC(C)n1cnc2c(Nc3cccc(Cl)c3)nc(NCCO)nc21: 96.3%
CC(C)(C)c1nc2c3cc[nH]c(=O)c3c3cc(F)ccc3c2[nH]1: 67.2%
O=C1c2ccccc2-c2nc3nnnn3nc21: 88.1%
COc1cc2c(Nc3ccc(Br)cc3F)ncnc2cc1OCC1CCN(C)CC1: 97.1%
O=C(O)/C=C/c1cc(Br)c(Br)c(Br)c1Br: 86.8%
NC(=O)c1cccc(-c2cc(Nc3ccc(OC(F)(F)F)cc3)ncn2)c1: 97.1%
O=C(c1ccccc1)c1ccc(N2CCOCC2)cc1O: 99.1%
Nc1nc(Nc2ccc(S(N)(=O)=O)cc2)nn1C(=S)Nc1c(F)cccc1F: 66.6%
FC(F)(F)c1ccc(/C=C/c2nc(COc3ccc(CCCCn4ccnn4)cc3)co2)cc1: 101%
CCCCc1c(-c2ccc(O)cc2)[nH]c2nccnc12: 95.7%
N#CC(c1ccnc(NCCc2cccnc2)n1)c1nc2ccccc2s1 (centres unmarked): 92.8%
O=C1NC(=O)/C(=C/c2ccc3c(c2)OC(F)(F)O3)S1: 96.6%
NC(=O)c1ccc(-c2nc(-c3ccc4c(c3)OCCO4)c(-c3ccccn3)[nH]2)cc1: 95.9%

Series 2
Structure (SMILES): CCCCN(CCCC)C(=O)CN1C[C@H](c2cc(OC)c3c(c2)OCO3)[C@@H](C(=O)O)[C@@H]1CC(C)(C)CCC
Effect on: binding
Technique: radioligand binding
Tested at: 10 µM
Endpoint: inhibition
ADRA1A (Homo sapiens, UniProt P35348): -2.13%
CHRM5 (Homo sapiens, UniProt P08912): -13.8%
ADRB1 (Homo sapiens, UniProt P08588): -6.6%
ADRB2 (Homo sapiens, UniProt P07550): -10.5%
HTR2B (Homo sapiens, UniProt P41595): -9.89%
HTR6 (Homo sapiens, UniProt P50406): -11.4%
DRD4 (Homo sapiens, UniProt P21917): 21.7%
SIGMAR1 (Homo sapiens, UniProt Q99720): 29.6%
HRH3 (Homo sapiens, UniProt Q9Y5N1): -3.57%
DRD3 (Homo sapiens, UniProt P35462): 17.3%
DRD2 (Homo sapiens, UniProt P14416): 21.3%
ADRA2A (Homo sapiens, UniProt P08913): -17.1%
TMEM97 (Homo sapiens, UniProt Q5BJF2): 48.4%

Series 3
SMILES: C=CC(=O)N1CCC([C@@H]2CCNc3c(C(N)=O)c(-c4ccc(Oc5ccccc5)cc4)nn32)CC1
Tested at: 1 µM
Endpoint: inhibition
Tyrosine-protein kinase JAK1, JH1 kinase domain (JAK1, Homo sapiens, UniProt P23458); inhibitor: 2%
TEC (Homo sapiens, UniProt P42680); enzyme activity, inhibitor: 93%
RIPK1 (Homo sapiens, UniProt Q13546); enzyme activity, inhibitor: 5%
PAK3 (Homo sapiens, UniProt O75914); enzyme activity, inhibitor: 0%
KIT (Homo sapiens, UniProt P10721, D816H); enzyme activity, inhibitor: 16%
FGR (Homo sapiens, UniProt P09769); enzyme activity, inhibitor: 54%
IKBKB (Homo sapiens, UniProt O14920); enzyme activity, inhibitor: 8%
EGFR (Homo sapiens, UniProt P00533, A750P/del747-749); cell-free assay: 24%

Series 4
Target: DNA polymerase theta, ATPase domain (POLQ, Homo sapiens, UniProt O75417)
Chain of UniProt O75417 (whole entry, unmodified, looked up): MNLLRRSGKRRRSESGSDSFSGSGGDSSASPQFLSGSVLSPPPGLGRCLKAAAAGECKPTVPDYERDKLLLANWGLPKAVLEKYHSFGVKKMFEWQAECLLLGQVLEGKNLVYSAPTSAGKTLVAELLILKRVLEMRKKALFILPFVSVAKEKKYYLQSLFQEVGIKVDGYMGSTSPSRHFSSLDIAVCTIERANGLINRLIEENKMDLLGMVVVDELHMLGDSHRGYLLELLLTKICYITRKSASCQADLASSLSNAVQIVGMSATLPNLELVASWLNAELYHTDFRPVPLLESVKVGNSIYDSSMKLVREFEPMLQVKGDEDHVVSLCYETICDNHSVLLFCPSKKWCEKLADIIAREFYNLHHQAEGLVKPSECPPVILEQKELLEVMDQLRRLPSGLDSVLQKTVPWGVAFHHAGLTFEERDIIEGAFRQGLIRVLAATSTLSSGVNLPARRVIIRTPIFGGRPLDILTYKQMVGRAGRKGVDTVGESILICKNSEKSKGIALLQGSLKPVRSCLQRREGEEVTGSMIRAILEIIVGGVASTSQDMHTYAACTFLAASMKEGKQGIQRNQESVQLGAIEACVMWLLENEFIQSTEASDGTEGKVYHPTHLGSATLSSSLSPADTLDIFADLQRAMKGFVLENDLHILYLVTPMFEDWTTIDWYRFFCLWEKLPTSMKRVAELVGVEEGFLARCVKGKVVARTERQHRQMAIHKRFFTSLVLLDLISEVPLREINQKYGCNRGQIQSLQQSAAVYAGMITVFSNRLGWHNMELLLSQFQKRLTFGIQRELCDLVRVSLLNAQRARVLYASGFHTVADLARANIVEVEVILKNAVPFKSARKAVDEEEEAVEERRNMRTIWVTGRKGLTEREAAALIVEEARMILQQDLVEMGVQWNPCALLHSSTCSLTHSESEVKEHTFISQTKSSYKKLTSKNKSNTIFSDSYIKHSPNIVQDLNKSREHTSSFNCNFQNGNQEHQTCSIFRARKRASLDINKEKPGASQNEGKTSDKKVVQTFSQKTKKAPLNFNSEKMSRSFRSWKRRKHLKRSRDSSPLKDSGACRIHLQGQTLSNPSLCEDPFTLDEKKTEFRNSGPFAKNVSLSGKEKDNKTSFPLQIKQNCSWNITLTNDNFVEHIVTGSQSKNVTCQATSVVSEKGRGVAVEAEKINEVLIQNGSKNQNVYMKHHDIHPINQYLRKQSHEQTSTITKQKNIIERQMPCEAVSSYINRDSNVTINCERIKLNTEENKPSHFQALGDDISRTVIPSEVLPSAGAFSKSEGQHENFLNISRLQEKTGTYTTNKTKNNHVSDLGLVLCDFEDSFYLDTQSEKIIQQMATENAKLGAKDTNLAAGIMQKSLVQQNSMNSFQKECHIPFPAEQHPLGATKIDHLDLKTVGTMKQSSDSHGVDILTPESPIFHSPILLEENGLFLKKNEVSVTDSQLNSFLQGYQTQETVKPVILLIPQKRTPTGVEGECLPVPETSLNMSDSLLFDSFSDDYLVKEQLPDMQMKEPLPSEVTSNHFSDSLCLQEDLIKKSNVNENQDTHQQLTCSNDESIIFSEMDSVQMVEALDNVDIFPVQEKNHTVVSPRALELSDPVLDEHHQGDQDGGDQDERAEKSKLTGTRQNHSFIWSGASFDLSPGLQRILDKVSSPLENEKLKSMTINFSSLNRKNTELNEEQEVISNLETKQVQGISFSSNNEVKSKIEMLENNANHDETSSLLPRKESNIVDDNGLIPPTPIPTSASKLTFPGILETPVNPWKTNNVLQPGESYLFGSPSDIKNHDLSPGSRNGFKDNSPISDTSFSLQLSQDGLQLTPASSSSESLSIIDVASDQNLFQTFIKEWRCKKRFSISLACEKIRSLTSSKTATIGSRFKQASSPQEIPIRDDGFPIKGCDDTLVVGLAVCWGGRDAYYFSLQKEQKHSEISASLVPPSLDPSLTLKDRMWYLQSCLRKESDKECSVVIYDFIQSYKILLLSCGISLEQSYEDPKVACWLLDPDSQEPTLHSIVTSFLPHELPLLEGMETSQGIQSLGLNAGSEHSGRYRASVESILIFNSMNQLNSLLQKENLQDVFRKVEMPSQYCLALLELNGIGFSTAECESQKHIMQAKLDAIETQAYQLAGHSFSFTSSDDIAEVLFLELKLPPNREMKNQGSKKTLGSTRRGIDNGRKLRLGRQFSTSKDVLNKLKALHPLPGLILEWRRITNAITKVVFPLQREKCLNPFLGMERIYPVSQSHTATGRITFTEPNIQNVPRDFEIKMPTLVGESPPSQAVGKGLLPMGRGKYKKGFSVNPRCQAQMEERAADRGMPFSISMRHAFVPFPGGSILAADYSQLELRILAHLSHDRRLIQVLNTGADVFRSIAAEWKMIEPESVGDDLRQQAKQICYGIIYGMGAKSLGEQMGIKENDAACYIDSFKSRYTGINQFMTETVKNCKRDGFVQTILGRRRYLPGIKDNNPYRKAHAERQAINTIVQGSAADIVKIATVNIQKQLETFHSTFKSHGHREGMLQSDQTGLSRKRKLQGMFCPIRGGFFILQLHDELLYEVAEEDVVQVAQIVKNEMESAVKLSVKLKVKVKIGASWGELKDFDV
Effect on: enzyme activity
Action: inhibitor
Tested at: 77 µM
Baseline: untreated
Endpoint: remaining activity
CS(=O)(=O)c1ccc([C@@H](O)[C@@H](CO)NC(=O)C(Cl)Cl)cc1: 98.1% and 101%
C[C@H](CCC(=O)O)[C@H]1CC[C@H]2[C@@H]3[C@@H](O)C[C@@H]4C[C@H](O)CC[C@]4(C)[C@H]3CC[C@]12C: 88%
COc1c2occc2c(OC)c2c(=O)cc(C)oc12: 98.1%
Cc1c(NC(=O)OC[C@@H]2COCCN2)cn2ncnc(Nc3ccc4c(cnn4Cc4cccc(F)c4)c3)c12: 109%
CC(=O)Oc1ccccc1C(=O)Nc1ncc([N+](=O)[O-])s1: 54%
CNC(=O)c1c(F)cccc1Nc1nc(Nc2cc3c(ccn3C(=O)CN(C)C)cc2OC)nc2[nH]ccc12: 95.3%
COc1ccc(-c2cc3nccn3c(Nc3ncccc3C(N)=O)n2)cc1OC: 103%
Nc1ncnc2c1ncn2[C@@H]1O[C@H](CO)[C@@H](O)[C@H]1O: 90.6% and 102%
CCOC(=O)CCNc1cc(N2CCc3ccccc3CC2)nc(-c2ccccn2)n1: 103%
COc1cc(CCC(C)=O)ccc1O: 101%
CC[C@@H]([C@H](C)O)n1ncn(-c2ccc(N3CCN(c4ccc(OC[C@@H]5CO[C@@](Cn6cncn6)(c6ccc(F)cc6F)C5)cc4)CC3)cc2)c1=O: 95.5%

A few entries again (series 1):
CNc1cc2c(Nc3cccc(Br)c3)ncnc2cn1: 97.3%
FC(F)(F)c1ccc(/C=C/c2nc(COc3ccc(CCCCn4ccnn4)cc3)co2)cc1: 101%
C[C@@H](N)[C@H]1CC[C@H](C(=O)Nc2ccncc2)CC1: 97.1%
CC(C)n1cnc2c(Nc3cccc(Cl)c3)nc(NCCO)nc21: 96.3%
